Assay results gathered from unrelated publications.
Every numbered part comes from another study and shows a few of its results, in no order.

Sample 1
Target: Interferon regulatory factor 5, full length, phosphomimetic (IRF5, Homo sapiens, UniProt Q13568-2, residues 1-514, S451D/S453D/S456D/S462D)
Technique: protein-binding microarray
Molecule type: double-stranded DNA, one strand shown
Sample: in vitro
Concentration: 940 nM top
Notes: 60-bp whole probe
With: salmon DNA 0.4 mg/ml
Baseline: random background probes
Direction: higher = stronger binding
All sequences stand within: GCCTAGCAC … GTCTTGATTCGCTTGACGCTGCTG
`CTTGTGCTCCTTTTAATTTTGTGCTAG`: “fitted relative affinity” 0.695 z-score.
`TTAGGACTGAGTTTCGATTAGTGCTAG` — result for “fitted relative affinity”: 6.98 z-score.
Under “fitted relative affinity”, `AGACAGAAGGGAAACAGGTTGGTGCTA` is recorded as -0.151 z-score.
`GACTGTTTCGGTCTCGGGACGTGCTAG`: “fitted relative affinity” 7.71 z-score.
`TTAGGTATCGACTTCCGGTTAGTGCTA` — result for “fitted relative affinity”: 6.06 z-score.
For `GATGATTTCAGTATCGAGACGTGCTAG`, “fitted relative affinity” read 2.47 z-score.
`AACGATTTCAGTATCGAGACGTGCTAG` — result for “fitted relative affinity”: 2.53 z-score.
For `GACGGACCGGGGTATCGGGACGTGCTA`, “fitted relative affinity” read 0.1 z-score.
Under “fitted relative affinity”, `TTATGTCTCCTTTTCCTTTAGTGCTAG` is recorded as 1.43 z-score.
For `TTAGCTTTCGGGACTGGGTTAGTGCTA`, “fitted relative affinity” read 1.97 z-score.
`GTAGGTCTCCTTTTCCTTTAGTGCTAG` — result for “fitted relative affinity”: 0.719 z-score.
`GACGGTATCCTTTTCCTGATGTGCTAG`: “fitted relative affinity” 0.345 z-score.
Under “fitted relative affinity”, `TACGGACTGGACTATCGGGACGTGCTA` is recorded as -0.446 z-score.
`ATGCATGTAAATAATCAGACAGTGCTA`: “fitted relative affinity” -0.139 z-score.
Under “fitted relative affinity”, `GACGGTTTCGGCACTGGGGACGTGCTA` is recorded as 7.2 z-score.
Under “fitted relative affinity”, `GACGGTCTCCTTCTCCTGGCGTGCTAG` is recorded as 0.756 z-score.
`TTAGGTATCGGGTAACGGTTAGTGCTA` — result for “fitted relative affinity”: 6.18 z-score.
Under “fitted relative affinity”, `GAGGGACTGGGTCTCGGGACGTGCTAG` is recorded as -0.393 z-score.
`GACGGTATCGGGTAGCGGGACGTGCTA` — result for “fitted relative affinity”: 5.15 z-score.
`GACGGTATCGGGACTGGGCACGTGCTA`: “fitted relative affinity” 2.83 z-score.
`TCAGCTTTCTTTACCACACTGTGCTAG` — result for “fitted relative affinity”: 1.29 z-score.
Under “fitted relative affinity”, `TCACTTTTCATTACTGCACTGTGCTAG` is recorded as 1.7 z-score.
For `GACGGGCTCCTTTTCCTGACGTGCTAG`, “fitted relative affinity” read 0.116 z-score.

Sample 2
Target: Sal-like protein 4, full length isoform B (SALL4, Homo sapiens, UniProt Q9UJQ4-2, residues 1-616)
Technique: universal PBM
Molecule type: double-stranded DNA, one strand shown
Sample: in vitro
Concentration: not given
Notes: 8-mer, flanks averaged, mean of replicates
Direction: higher = stronger binding
For `GTACATTA`, the E-score was 0.247.
The E-score of `CCTATGAC` is reported as 0.0402.
The E-score of `CCGTCGTC` is reported as -0.308.
With `GCCTTAGA` the E-score was -0.133.
For `AGGTGACA`, the E-score was 0.0285.
For `CATATTAG`, the E-score was 0.337.
For `CCAAATGA`, the E-score was 0.185.
For `AGGCAGCA`, the E-score was -0.01.
`CAGGAGCC` has an E-score of -0.354.
For `AGAGTCAC`, the E-score was -0.106.
With `AGGGTGAA` the E-score was -0.0626.
`CGGCCTGA` has an E-score of -0.273.
The E-score of `CACTTAAG` is reported as 0.124.
With `GATAGTAC` the E-score was 0.0559.
For `CTGTGATC`, the E-score was -0.0567.
With `ATCTAGTC` the E-score was -0.0368.
`CCGTCAAA` gave an E-score of -0.0125.
`ATAAGCAT` gave an E-score of 0.28.
For `GAGCTAGC`, the E-score was -0.129.

Sample 3
Target: Histone acetyltransferase KAT6A, winged helix 1, GST fusion (KAT6A, Homo sapiens, UniProt Q92794, residues 1-85)
Technique: protein binding microarray
Molecule type: double-stranded DNA, one strand shown
Sample: in vitro
Concentration: not given
Notes: 8-mer, flanks averaged, mean of 2 arrays, mostly near background
Baseline: not given
Direction: higher = stronger binding
Construct (chain): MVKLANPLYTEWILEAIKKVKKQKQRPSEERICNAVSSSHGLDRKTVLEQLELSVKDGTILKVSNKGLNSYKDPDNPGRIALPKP
For `GTATTAAC`, the E-score was 0.0338.
For `AGTACAAG`, the E-score was -0.178.
`AACCTGCC` has an E-score of -0.0499.
The E-score of `CCTTGCCA` is reported as -0.157.
`GAAGATAC` gave an E-score of 0.0889.
The E-score of `ACGTAACC` is reported as 0.0195.
The E-score of `CACATTAC` is reported as 0.0259.
`AGCTGTCC` has an E-score of -0.164.
With `ACCCCCGG` the E-score was 0.172.
`CAGAAGCG` has an E-score of 0.0874.
`CGATGCGA` has an E-score of 0.0622.
For `CGCAAGCG`, the E-score was 0.359.
`AAATGCTA` gave an E-score of -0.196.
With `AAATTTGA` the E-score was -0.193.
The E-score of `ACTTAGCT` is reported as -0.133.
With `GTTTGAAA` the E-score was -0.133.
With `GGCGCCTA` the E-score was 0.263.
With `GCAGTGAC` the E-score was -0.029.
`CAGAACTA` has an E-score of -0.0121.
For `AGCGGGCG`, the E-score was 0.413.
With `CTAAGCTA` the E-score was -0.136.
`CAGCCAAG` gave an E-score of -0.144.
For `CCCAGGAG`, the E-score was -0.251.
`TACGGGCA` has an E-score of 0.29.
For `AGCTAATG`, the E-score was -0.258.

Sample 4
Target: RNA binding protein fox-1 homolog 2, RRM domain, GST-SBP tag (RBFOX2, Homo sapiens, UniProt O43251-10, residues 100-194)
Technique: RNA Bind-n-Seq
Molecule type: RNA
Sample: in vitro
Concentration: 365 nM
Notes: natural RNA segment, single round, ends assumed
Baseline: no-protein control
Direction: higher = stronger binding
All sequences stand within: GGGAGUUCUACAGUCCGACGAUC … UGGAAUUCUCGGGUGCCAA
Construct (chain): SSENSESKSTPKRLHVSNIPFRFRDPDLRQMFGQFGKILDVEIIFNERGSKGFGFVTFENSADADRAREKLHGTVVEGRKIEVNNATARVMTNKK
`AGGAGAGCCUGUCUUGUUGGUGGGACCCUAAUUACCCCUGAGCCUCUCGGGAAUGCUUUUCCAGCAGGGAGCUCUUCCCCUGAAGGAGACUAGCUUGCCUUGGUUUUGAU`: “RBNS enrichment (R)” 0.786.
For `UUAAACAGCGUUUCUUCAUUGCCUGUGUAUGAGAAAAACUUGGAAGUGUGCCUGUGUAUAUAACUCUGUAAAGACACUGAAAAUUAUACUAACUUAUUUAUGUUAAAAAG`, “RBNS enrichment (R)” read 4.78.
`GUAAAAGCCAUUUAAAAAAGUUAGCAAGAUUUUUUAUCGACUUCCCAACUGGGCUUCCAGCCUUGUUGAAUGAAAUCAUCUAUCUCUGAUUGGGCGCAACGAACUGCAUU` — result for “RBNS enrichment (R)”: 0.429.
For `UGGGAGGAGCCCCUGGACAUGCCUGUCCUGAAAGCGGCUGCCUCCAUUAUCCAUUCCCAAGAUGCCUGAUCAGAAACCAACCAUGAAUGAACCCCUGGCUCCUUCACCAC`, “RBNS enrichment (R)” read 0.433.
`GAGCCAGCCUGCUAGAAGGCAGGAGUAGCCAGAAUGGAACAUCUGUGCAGAAAGUAGGCCAUUCUCAGCUAGGAUGUAGAAGAACUUGCAGGCUUUGAAACAGCCAACAG`: “RBNS enrichment (R)” 0.505.
`CCAUAUGGAGCCAGACAUUGGGACGCACGCAUGUGAUUGUGUGUGCACGCAUGUGUGUGUGUGCACGCACUGGGCUGGGCCAAGCGACUGAGGAUUCGCUUGGGAACGGG`: “RBNS enrichment (R)” 3.96.
Under “RBNS enrichment (R)”, `GAGGCCCUUUCAAACAUGAUCAAAGAUUUCCCAAUGUGAUCUCAUCAUCAUGGAUACUCAAUUUGUUUUUUCUUAUAGAGAAAAUGAGUAUAUAAGACAAUAUACAAGAA` is recorded as 0.38.
Under “RBNS enrichment (R)”, `AUCCAAAUACGUGGGACUCAAAGACUCCUAGUCAGCUGUAGUUCUGGAGGCUCUGAAUGUCUAACUUUAGCAUCAAAGUGUCUGUCUCAGAUUCCCAGUAAACACCUCUG` is recorded as 0.841.
Under “RBNS enrichment (R)”, `GACACCCUGGUGCUGCUGCUGGUGAGACUGGUGUCCAAGGCAGGGCCCAGCAGAAACUGCAGCCUGCUGUCUACCAAAGGAGGUACCCGAGUUGGGUACUUUAAAAAAAA` is recorded as 0.288.
`UUUGGUUUGGGUUUGUUUUUGCCUUUGAGGAAAUAAAGAGUGGGUACUUAAGGAAGGUAGUUGCAAAUACCAACUAUGGCCAUGCGAUCAGGCGCAGAAAUGAGGAUUAC` — result for “RBNS enrichment (R)”: 1.27.
`AUAUAAAAUGUAACCACUGAACAUUUGACAACUUUGUUGCAUUAUCAUUUUUAAAAAAAGAUGAAGCAUUUCAAAAUCUUGUUAACCUGGUUAUCUCUUGGUAUCUCUCC` — result for “RBNS enrichment (R)”: 0.365.
`UUUGAGGCGAAGGCGUCUGUCUCUUGGCUAUUUUAACCUAAAAUAACAGUCUAGUUAUAUUCCCUCUUCUUGCAAAGCACAAGCUGGGACCGCGAGCACAUUGCAGCCCC` — result for “RBNS enrichment (R)”: 0.587.

Sample 5
Target: Ras GTPase-activating protein-binding protein 1, full length (G3BP1, Homo sapiens, UniProt Q13283)
Sequence of UniProt Q13283 (whole entry, looked up): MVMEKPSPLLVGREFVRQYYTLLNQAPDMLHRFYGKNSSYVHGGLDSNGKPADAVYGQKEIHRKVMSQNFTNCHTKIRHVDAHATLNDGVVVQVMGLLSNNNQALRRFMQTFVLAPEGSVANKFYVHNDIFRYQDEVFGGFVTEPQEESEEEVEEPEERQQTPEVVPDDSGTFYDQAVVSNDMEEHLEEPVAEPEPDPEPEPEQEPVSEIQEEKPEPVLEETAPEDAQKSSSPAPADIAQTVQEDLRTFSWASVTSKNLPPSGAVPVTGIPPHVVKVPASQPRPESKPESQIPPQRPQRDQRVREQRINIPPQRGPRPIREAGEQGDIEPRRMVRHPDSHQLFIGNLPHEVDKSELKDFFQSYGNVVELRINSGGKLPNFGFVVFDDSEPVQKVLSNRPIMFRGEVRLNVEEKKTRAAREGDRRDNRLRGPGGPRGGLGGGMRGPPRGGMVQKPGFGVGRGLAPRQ
Technique: RNA Bind-n-Seq
Molecule type: RNA
Sample: in vitro
Concentration: 200 nM
Notes: whole 134-nt RNA, ends assumed
With: 150 mM LiCl
Baseline: input library
Direction: higher = stronger binding
Each molecule: 7-deaza-guanosine replaces G
All sequences stand within: GGGAGUUCUACAGUCCGACGAUC … UGGAAUUCUCGGGUGUCAAGG
With `CACAGACAACACGCACCCACACAGACACAGAGGGAAGGGGUUGGGAUGGGGACAGGGUGCACAGCAGGGAAAGGUAGGACCCCAGCCCCU` the log2 enrichment was 0.32.
The log2 enrichment of `CAAGUCCUGUGCUACACAUCGUAUGUACCGAAUCGGUUUUGGUUUUGGGGUUUUGGAAAGUAUUAUGUUACGCCGUUCGGAUCUGCACUU` is reported as -1.29.
For `GGUGAUGGUCAACAAGCCUCAACUGCCUCUGCUACAACUGCCAAGUUCCCCGCGUCCCACCCUCCUCUAGGUGCUCCAAGGGACCACCGG`, the log2 enrichment was -0.446.
The log2 enrichment of `CUCAAGUCCUGUGCUACACAUCGUAUGUACCGAAUCGGAAAGGAAAAAGGAGGAAAGUAUUAUGUUACGCCGUUCGGAUCUGCACUUCCA` is reported as -0.222.
For `GUCCUGUGCUACACAUCGUAUGUACCGAAUCGGGGUUUUUGGGGAAAAAGGGGUGGGGAAAGUAUUAUGUUACGCCGUUCGGAUCUGCAC`, the log2 enrichment was -1.14.
`UGGCCCUGGUGGCAUGCGGGGAGGAAGAGGUGGCGUCAUGGAUCGUGGUGGUCCCGGUGGAAUGUUCAGAGGUGGCCGUGGUGGAGACAG` has a log2 enrichment of 0.959.
The log2 enrichment of `ACCAUGCAGGUGGGCAUCUUUGGGAAGUGGGGCAUGGGGGGGAUAGGGAGGGGGGUAACACUUUGGGAACAGGUGGUCCCAGGUCGUUUC` is reported as 0.173.
For `UAACUUUAGAGGAGGAUCUGAUGGAUAUGGCAGUGGACGUGGAUUUGGGGGUGGCUAUAAUGGGUAUGGAGGAGGACCUGGAGGUGGCAA`, the log2 enrichment was -0.0502.
For `UGGGAGGUGAAUUUUGUUUAUUUUUUUAGCUCAUUUCCAGGGGUGGGAAUUUUUUUUUAAUAUGUGUCAUGAAUAAAGUUGUUUUUGAAA`, the log2 enrichment was -0.647.
`GCAGGAAGUAAAAACAAAUGGAAAUGCUUCGGAUAGUGGCAGGGGUGGGGGUUGCUAAGGAAAGGGUGGGAUAAAAGUGGGUAAAGAGUU` has a log2 enrichment of 0.3.
`ACCAUGCAGGUGGGCAUCUUUGGGAAGUGGGGCAAGGGGGGGAUAGGGAGGGGGGUAACACUUUGGGAACAGGUGGUGCCAGGUCGUUUC` has a log2 enrichment of -0.556.
